Measured values from different studies.
± gives the spread as reported.

COc1cc(CNC(=O)C[C@H](C)CCC=C(C)C)ccc1O has a growth percent of 97.2% (MCF7 breast cancer cells; SRB; 10 µM, 48 h).
For CC(=O)O[C@H]1C(=O)[C@]2(C)[C@@H](OC(=O)[C@H](N)CSC3CC(=O)N(CCC(=O)Nc4ccc(-c5ccc(/N=N/c6ccc7c(S(=O)(=O)O)cc(S(=O)(=O)O)c(N)c7c6O)c(C)c5)cc4C)C3=O)C[C@H]3OC[C@@]3(OC(C)=O)[C@H]2[C@H](OC(=O)c2ccccc2)[C@]2(O)C[C@H](OC(=O)[C@H](O)[C@@H](NC(=O)c3ccccc3)c3ccccc3)C(C)=C1C2(C)C (stereo partly shown), the cellular uptake was 1.5% (HEK293T; flow cytometry; concentration not given, 4 h).
With Cc1ccc2nc(-c3ccc(F)c(F)c3)c(CN3CCN(c4ccccc4)CC3)n2c1 the EC50 was > 50000 nM (CRL8155; cell growth or viability; 48 h).
For COc1cc(CNC(=O)C[C@H](C)CCC=C(C)C)ccc1OCc1cn(-c2ccccc2)nn1, the growth percent was 88.8% (IGROV-1 ovarian cancer cells; SRB; 10 µM, 48 h).
With CC(C)c1cccc(C(C)C)c1-n1ccn(-c2c(C(C)C)cccc2C(C)C)c1=[Se].[Cl][Au] the resistance factor was 2 (LoVo MDR; MTT; baseline: LoVo MDR over LoVo).
O=S(=O)(CCC(F)(F)F)Nc1ccc(Oc2ncccc2-c2ccnc(N[C@H]3CCCNC3)n2)c2ccccc12 — result for “cleaved caspase-3 level”: “decreased” (INS1 cells with Dox-inducible IRE1α; immunoblot; 20 µM, added: 5 ng/mL doxycycline).
For CC[C@H](C(=O)N1CCCC[C@H]1C(=O)O[C@H](CCc1ccc(OC)c(OC)c1)c1cccc(OCC(=O)NCCC(=O)N2CCN(CCCOc3cc4c(Nc5ccc(F)c(Cl)c5)ncnc4cc3OC)CC2)c1)c1cc(OC)c(OC)c(OC)c1, “decrease in viability” read 78.5% (HeLa FKBP12 F36V-PTPN2 knock-in; degrader; 5 µM, 6 days).
For O=C(Nc1cc2nc(-c3cccc(C(F)(F)F)c3)cn2cn1)N1CC[C@H](F)C1, the EC50 was > 50000 nM (CRL8155; cell growth or viability; 48 h).
For CO[C@@H]1[C@@H](O[C@@H]2O[C@H](C)[C@@H](O[C@H]3C[C@@](C)(O)[C@@H](OC(=O)c4ccc(C(C)(C)C)cc4)[C@H](C)O3)[C@H](N(C)C)[C@H]2O)[C@@H](CC=O)C[C@@H](C)[C@@H](O[C@H]2CC[C@H](N(C)C)[C@@H](C)O2)/C=C/C=C/C[C@@H](C)OC(=O)C[C@H]1O, the selectivity index was 1.44 (GES-1 and HGC-27; cell growth, CCK-8; 72 h; baseline: IC50 GES-1 over HGC-27).
With COc1cc(CNC(=O)C[C@H](C)CCC=C(C)C)ccc1OCc1cn(-c2ccc(C#N)cc2)nn1 the growth was 96.2% (786-0; SRB; 10 µM, 48 h).
For CO[C@H]1N(OC)c2ccccc2[C@@]12CN=C(Nc1cc(C(F)(F)F)cc(C(F)(F)F)c1)S2 (relative stereo), “sub-G1 phase cells” read 19.7 ± 2.26% (HCT-116; PI flow cytometry; 40 µM, 24 h).
CCCCCC(C)(O)/C=C/C=C\C=C\C=C\[C@@H](O)[C@@H](O)CCCC(=O)OC (mixture of isomers) gave an inhibition of ~78% (human neutrophils; chemotaxis, antagonist; 10 nM, 30 min, 37 °C, added: MMK-1 1 nM).
C=CCc1ccc(O)c(-c2cc(CC=C)ccc2OCCCCCCCCCC[P+](c2ccccc2)(c2ccccc2)c2ccccc2)c1 — result for “mitochondrial membrane potential”: “decreased” (UACC-62; TMRE flow cytometry; concentration not given, 24 h).
COc1cc(CNC(=O)C[C@H](C)CCC=C(C)C)ccc1OCc1cn(-c2ccccc2F)nn1 has a growth percent of 81.9% (IGROV-1 ovarian cancer cells; SRB; 10 µM, 48 h).
O=C1c2c(O)cc(O)cc2-c2c(-c3ccc(O)cc3)oc3cc(O)cc1c23 — result for “number of proteins upregulated”: 79 (MCF7 cells; label-free MS proteomics; 10 µM).
O=C(N1CCCC1)n1cc(-c2ccc(-c3ccccc3)cc2)nn1 gave an SILAC ratio of 1.06 ± 0.14 (mouse T-cells; N-terminal labeled proteins, N-terminal enrichment proteomics, refers to: PAIP2; 1 nM, 6 h; baseline: DMSO).
With CC(Cc1ccc(Cl)cc1)=C(c1ccc(Cl)cc1)c1ccc(OCCN(C)C)cc1 the GI50 was 990 nM (SR; cell growth or viability).
With C=C(CC)C(=O)c1ccc(OCC(=O)NCCNC(=O)COc2ccc(C(=O)C(=C)CC)c(Cl)c2Cl)c(Cl)c1Cl the IC10 was ~800 nM (CoC1/DDP; cell growth, CCK-8; 72 h).
CN(C)c1cc2ccccc2c(N)n1 — result for “ACTA2 mRNA level”: “decreased” (LX-2; qPCR; concentration not given, 6 h pre-treatment, added: TGF-β1 5 ng/mL for 12 h).
With COc1cc(CNC(=O)C[C@H](C)CCC=C(C)C)ccc1OCc1cn(-c2ccccc2[N+](=O)[O-])nn1 the growth percent was 78.9% (IGROV-1 ovarian cancer cells; SRB; 10 µM, 48 h).
For O=C(c1ccc2ccccc2c1)c1cn(-c2ccccc2)nc1C1=Nn2c(Cc3nnc4n3N=C(c3nn(-c5ccccc5)cc3C(=O)c3ccc5ccccc5c3)CS4)nnc2SC1, the mRNA level was 0.17 fold (MCF7 cells; RT-PCR, refers to: Bcl-2; IC50, 48 h; baseline: untreated).
With COc1ccc([C@@H]2CC(=O)c3c(O)cc(O[C@@H]4O[C@H](CO[C@@H]5O[C@@H](C)[C@H](O)[C@@H](O)[C@H]5O)[C@@H](O[C@H]5O[C@H](CO)[C@@H](O)[C@H](O)[C@H]5O)[C@H](O)[C@H]4O)cc3O2)cc1O the viability was 63.9% (A549; cell growth or viability, MTS; 50 µg/mL, 24 h).
For CCC/C(=C\C1=C(C(F)(F)F)C(=O)c2ccccc2C1=O)C(=O)N(CC)CC, “NADPH/total NADP ratio” read “decreased” (Pa03C cells; concentration not given, 6 h).
CC1(C)[C@@H](O)CC[C@]2(C)[C@H]3C(=O)C=C4[C@@H]5C[C@@](C)(C(=O)O)CC[C@]5(C)CC[C@@]4(C)[C@]3(C)CC[C@@H]12 has an inhibition of 15.3% (KARPAS-299; cell growth or viability, MTT; 20 µg/mL).
With COc1cc(CNC(=O)C[C@H](C)CCC=C(C)C)ccc1OCc1cn(-c2ccc(Cl)cc2Cl)nn1 the growth was 59.7% (MDA-MB-231/ATCC; SRB; 10 µM, 48 h).
For O=C1CCC(N2C(=O)c3ccc(N4CCC(C(=O)N5CCC(CCN6CCC(CNC(=O)c7cccc(-c8noc(C(F)(F)F)n8)c7)(c7nc(-c8ccccc8)cs7)CC6)CC5)CC4)cc3C2=O)C(=O)N1 (stereo not shown), “significantly changed genes” read 1830 genes (DHL6; RNA sequencing; 3 µM, 12 h).
C=C(C)[C@@H]1CC[C@]2(C(=O)OCO/N=[N+](\[O-])N3CCCC3)CC[C@]3(C)[C@H](CC[C@@H]4[C@@]5(C)CC[C@H](OC(C)=O)C(C)(C)[C@@H]5CC[C@]43C)[C@@H]12 — result for “late apoptotic cells”: 14.8% (B16-F10; Annexin V/PI flow cytometry; 1.0 µM, 36 h).
For COC(C(=NOCC(=O)NCc1ccccc1)C(O)C(C)O)C1Cc2cc3cc(OC4CC(OC5CC(O)C(O)C(C)O5)C(O)C(C)O4)c(C)c(O)c3c(O)c2C(=O)C1OC1CC(OC2CC(OC3CC(C)(O)C(O)C(C)O3)C(O)C(C)O2)C(O)C(C)O1 (stereo not shown), the GI50 was 292 nM (PC-3; cell growth or viability; 72 h).
CN1CCCNC(=O)c2cccc(c2)C(=O)NCCCN(C)CCCNc2cccc3c2C(=O)c2cccc(c2C3=O)NCCC1 gave an IC50 ratio of ~20 fold (cancer cell lines; cell proliferation; baseline: normal cells over HeLa).
CC/C=C\C/C=C\C/C=C\C/C=C\C/C=C\C/C=C\CCC(=O)Nc1ccn(C2OC(CO)C(O)C2(F)F)c(=O)n1 (stereo not shown) gave a GI50 of < 10 nM (786-0; cell growth or viability, SRB).
FC(F)(F)c1ccnc(-c2cc(C(F)(F)F)ccn2)c1.FC(F)(F)c1ccnc(-c2cc(C(F)(F)F)ccn2)c1.[Cl-].[Cl-].[Ru+2].c1csc(-c2ccc(-c3ccc(-c4nc5c6cccnc6c6ncccc6c5[nH]4)s3)s2)c1: “mean phototherapeutic index” 1400 (SK-MEL-28; cell viability; normoxia, added: visible light; baseline: dark EC50 over light EC50).
For NC(=O)C[C@H]1CCc2sc3ncnc(O[C@H]4CC[C@H](N5CCOCC5)CC4)c3c21, TNF production read “inhibited” (human white blood cells; concentration not given, 1 h pretreatment, added: LPS 1 µg/mL or CpG 0.5 µM).
With O=C1Nc2ccc(Cl)cc2C1=Cc1c(Cl)[nH]c2c1ccc1ccccc12 the TGI was 11200 nM (ovarian cancer subpanel of NCI-60; 48 h).
COc1ccc2c(c1)c1c(C)c3cnccc3c(C)c1n2CCCN1CCN(C)CC1: “loss of cell viability” > 75% (SK-N-SH; MultiTox-Fluor; IC50, 48 h).
CC(C)(C)CCN1C[C@@H]2[C@@H](CNC(=O)c3cc(Cl)cc(Cl)c3)[C@@H]2C1: “concentration abolishing motility” 30 µM (human sperm).
O=Cc1c(O)ccc2ccccc12: “log2 fold change” 2.7 (HUVEC; RNA sequencing, refers to: HIST1H2AC; 75 µM, 24 h; baseline: DMSO).
For Cc1nn(-c2ccc(S(=O)(=O)N[C@@H](CO)CC(C)C)cc2)c2nn3nnnc3nc12, the tail DNA was 56.5 ± 6.65% (PC-3; DNA damage, alkaline comet; 2 µM, 24 h).
Under ERK phosphorylation, CC(=O)c1c(C)c2cnc(Nc3ccc(N4CCNCC4)cn3)nc2n(C2CCCC2)c1=O is recorded as “no effect” (CHO cells; Western blot; concentration not given).
The cell count of COc1ccc([C@@H]2CC(=O)c3c(O)cc(O[C@@H]4O[C@H](CO[C@@H]5O[C@@H](C)[C@H](O)[C@@H](O)[C@H]5O)[C@@H](O)[C@H](O)[C@H]4O)cc3O2)cc1O is reported as 10800 ± 438 (A549; trypan blue exclusion; 100 µg/mL, 24 h).
The selectivity index of CCCCc1ccc(C(=O)O[C@@H]2CC(=O)O[C@H](C)C/C=C/C=C/[C@H](O[C@H]3CC[C@H](N(C)C)[C@@H](C)O3)[C@H](C)C[C@H](CC=O)[C@H](O[C@@H]3O[C@H](C)[C@@H](O[C@H]4C[C@@](C)(O)[C@@H](O)[C@H](C)O4)[C@H](N(C)C)[C@H]3O)[C@H]2OC)cc1 is reported as 5.09 (GES-1 and HGC-27; cell growth, CCK-8; 72 h; baseline: IC50 GES-1 over HGC-27).
CCC(=O)N(C)c1ccc(Cl)c(Cl)c1 — result for “live CD3+ T cells”: 63% (mouse splenocytes; 400 µM, 48 h, added: anti-CD3/CD28; baseline: vehicle).
For COc1ccc(-c2cc(C(F)(F)F)nc(SCC(=O)N(C)c3ccccc3)n2)cc1, the efficacy was 20% (NG108-15; refers to: cAMP; 25 µM, added: secretin(3-27)).
COc1ccc(/C=C/C2=[N+]3C(=C(C=O)c4c(C)c(Br)c(/C=C/c5ccc(OC)cc5)n4[B-]3(F)F)C(C)=C2Br)cc1 gave a phototoxicity index of 45 ± 2 (RPE-1; resazurin; added: 645 nm light; baseline: dark over light IC50).
COc1ccc(CC2COC(=O)C2Cc2ccc3c(c2)OCO3)cc1OC (mixture of isomers) — result for protein level: “decreased” (A2780cis (cisplatin-resistant); Western blot, refers to: cyclin D1; 3.25 µM, 48 and 72 h; baseline: 0 h control).
Cc1c(C)c(C)[c-](C)c1C.O=C1c2cccc[n+]2[Ir]([Cl])[N]1CCCCCCCCCC[P+](c1ccccc1)(c1ccccc1)c1ccccc1.[Br-] has an ROS level of 3.4 fold (SH-SY5Y; DCFDA; concentration not given, added: MPP+; baseline: untreated).
With COc1cc(CNC(=O)C[C@H](C)CCC=C(C)C)ccc1OCc1cn(-c2cccc([N+](=O)[O-])c2)nn1 the growth percent was 74.5% (MCF7 breast cancer cells; SRB; 10 µM, 48 h).
With CCCCCCCCCCCCCCCC(=O)O[C@H]1[C@H](C)O[C@@H](O[C@H]2[C@H](N(C)C)[C@@H](O)[C@H](O[C@H]3[C@@H](CC=O)C[C@@H](C)[C@@H](O[C@H]4CC[C@H](N(C)C)[C@@H](C)O4)/C=C/C=C/C[C@@H](C)OC(=O)C[C@@H](O)[C@@H]3OC)O[C@@H]2C)C[C@@]1(C)O the selectivity index was 2.58 (GES-1 and HGC-27; cell growth, CCK-8; 72 h; baseline: IC50 GES-1 over HGC-27).
With COc1cc(CNC(=O)C[C@H](C)CCC=C(C)C)ccc1OCc1cn(-c2ccc(Br)cc2)nn1 the growth percent was 70% (MOLT-4 leukaemia cells; SRB; 10 µM, 48 h).
Cc1cc(-c2ccccc2)c2ccc3c(-c4ccccc4)cc(C)nc3c2n1.[Cl-].[Cl-].[Ru+2].c1ccc(-c2ccccn2)nc1.c1ccc(-c2ccccn2)nc1 gave a phototoxicity index of 2 to 11 (A549, Caco-2, HT-29, MDA-MB-231; baseline: dark IC50 over light IC50).

Some of these lines once more:
For CO[C@H]1N(OC)c2ccccc2[C@@]12CN=C(Nc1cc(C(F)(F)F)cc(C(F)(F)F)c1)S2 (relative stereo), “sub-G1 phase cells” read 19.7 ± 2.26% (HCT-116; PI flow cytometry; 40 µM, 24 h).
CCCCCC(C)(O)/C=C/C=C\C=C\C=C\[C@@H](O)[C@@H](O)CCCC(=O)OC (mixture of isomers) gave an inhibition of ~78% (human neutrophils; chemotaxis, antagonist; 10 nM, 30 min, 37 °C, added: MMK-1 1 nM).
C=CCc1ccc(O)c(-c2cc(CC=C)ccc2OCCCCCCCCCC[P+](c2ccccc2)(c2ccccc2)c2ccccc2)c1 — result for “mitochondrial membrane potential”: “decreased” (UACC-62; TMRE flow cytometry; concentration not given, 24 h).
COc1cc(CNC(=O)C[C@H](C)CCC=C(C)C)ccc1OCc1cn(-c2ccccc2F)nn1 has a growth percent of 81.9% (IGROV-1 ovarian cancer cells; SRB; 10 µM, 48 h).
O=C1c2c(O)cc(O)cc2-c2c(-c3ccc(O)cc3)oc3cc(O)cc1c23 — result for “number of proteins upregulated”: 79 (MCF7 cells; label-free MS proteomics; 10 µM).
